Experimental data of several laboratories.
Each numbered part is a random draw from the data of one study; scales do not carry over between parts.

Study 1
Target: RNA binding protein fox-1 homolog 2, RRM domain, GST-SBP tag (RBFOX2, Homo sapiens, UniProt O43251-10, residues 100-194)
Method: RNA Bind-n-Seq
Form: RNA
Sample: in vitro
Tested at: 365 nM
Setting: natural RNA segment, single round, ends assumed
Relative to: no-protein control
Reading: higher = stronger binding
Target sequence (chain): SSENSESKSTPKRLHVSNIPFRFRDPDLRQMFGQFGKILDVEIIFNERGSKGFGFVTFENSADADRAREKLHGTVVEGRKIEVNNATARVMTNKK
For `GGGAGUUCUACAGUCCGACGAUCCCCAGCCUGUAAUUCUAAGUUCAACAAAACAGUUGUCAACAAAAGUGACUGAGGCUUCCACCAGAGUGCCAGGGCUCUGUGCAGACUCAGAAUCCCUGUUCCCUAUGUCAUGGAAUUCUCGGGUGCCAA`, “RBNS enrichment (R)” read 0.742.
Under “RBNS enrichment (R)”, `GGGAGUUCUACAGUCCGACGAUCCGGCUUUUGAAGGCCAGUAACCAUUGUUGUGGUUGUGUUUUGUAUUGCUUGAUACCAUGAAAGUGUAAAUACUGUAAUGCCUAAUCUAUUUAUCAAAACUGACUACUGGAUGGAAUUCUCGGGUGCCAA` is recorded as 0.616.
Under “RBNS enrichment (R)”, `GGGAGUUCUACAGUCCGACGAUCCCCACGGAACUUUUUAAUAACACAACACUAAACAUCUAAAGAAUAUAAAACUUGGAAUCUUCUCACCCGUCACGUGGAGCUCCAUCUGUUUCAGCUGUUGAUGUAGUUUGUGGAAUUCUCGGGUGCCAA` is recorded as 0.817.
For `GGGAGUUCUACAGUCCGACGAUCAAAACAACUUGGUAUUUAAGUAUGAAGUGGAUGAAAUGUUUAUUUAUUUAAGGUGAAAGCAUUUGACCCAGGGUGUCUUCAUCUUCAAUUUGGGUUUAAUGUUAUAGAAAUGGAAUUCUCGGGUGCCAA`, “RBNS enrichment (R)” read 0.701.
`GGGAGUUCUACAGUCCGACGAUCGCCAUCCUGAAGGCCCUUCCCCAUAGGCGCUGAAGCUGGAGCUGGCGGGACCCCACCACGAGUGCUUCCAGAACCGCAACAGGAUAUCAGUCCUGCAUCUUCUGUGUAGUUGGAAUUCUCGGGUGCCAA`: “RBNS enrichment (R)” 0.303.
For `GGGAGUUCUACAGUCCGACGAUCCGAGGGUCCUUACUGCUGUGUACCAACACUGACCCCGCCCUCUCUGAGCUGUACUCUCUGCCCGUGACUAUGGCCUCUGUCAUUGCUCCGUUCCAACCACCCCCCCCCCCUGGAAUUCUCGGGUGCCAA`, “RBNS enrichment (R)” read 0.693.
`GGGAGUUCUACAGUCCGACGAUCGAUGGUCUGUUUUGACAGAAACUGACAGGAAUCAAAACAAUCGAAUUUUGAAUUGAGUGAAGUGCAAUUUCAUUGGAUAGCUAAGUAUCUUUGUAAGAUAGAGAUUGUUGUGGAAUUCUCGGGUGCCAA` — result for “RBNS enrichment (R)”: 0.47.
`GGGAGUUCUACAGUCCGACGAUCAAAUGGCUACAGAUAAUGCUCUUUUCUUUUGUGAGGUCUCUUCAUUUAAUGCACUGCCCAGAAAGAGCCAUGUGUAAGAGUUGUUCUCUGUUUGAGGAACUAACUACAUGUGGAAUUCUCGGGUGCCAA` — result for “RBNS enrichment (R)”: 0.567.

Study 2
Target: Probable WRKY transcription factor 33, C-terminal DNA-binding domain (WRKY33, Arabidopsis thaliana, UniProt Q8S8P5, residues 346-449)
Method: DNA-protein interaction ELISA
Form: double-stranded DNA, one strand shown
Sample: in vitro, bacterial lysate
Tested at: not given
Setting: whole dsDNA probe, crude lysate protein
Relative to: highest signal in screen
Reading: higher = stronger binding
Target sequence (chain): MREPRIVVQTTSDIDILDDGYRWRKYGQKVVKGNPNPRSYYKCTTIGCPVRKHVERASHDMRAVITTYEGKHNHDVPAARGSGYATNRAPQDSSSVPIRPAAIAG
The relative absorbance of `AAAAAACCTCTTGTCTCTGCTCTCCCAAAA` is reported as 31.6 % of maximum.
With `AAAAAATTTGGTCTTCGTCCTCGCTTAAAA` the relative absorbance was 91.3 % of maximum.
The relative absorbance of `AAAAAATACATTTGACTTTGGGTTTCAAAA` is reported as 100 % of maximum.
For `AAAAAAAAGGACATTTTTTCTTTTTGAAAA`, the relative absorbance was 29.4 % of maximum.
With `AAAAAAGAGAATTGTCAGTGCCCAACAAAA` the relative absorbance was 69.2 % of maximum.
For `AAAAAATTAGACGCTACACTTACGGTAAAA`, the relative absorbance was 38.1 % of maximum.
`AAAAAAGTTCGGGGCTTGGTTTGGAAAAAA` gave a relative absorbance of 29.8 % of maximum.
The relative absorbance of `AAAAAATGTATTCGTGTCCACTCCATAAAA` is reported as 36.5 % of maximum.
The relative absorbance of `AAAAAAAAAAAAAAAAAAAAAAAAAAAAAA` is reported as 36.7 % of maximum.
`AAAAAACTCGACATAGAATGCGGAAAAAAA` has a relative absorbance of 36 % of maximum.
The relative absorbance of `AAAAAATGGTCGTCGTACTCGTGGTCAAAA` is reported as 99.5 % of maximum.
`AAAAAATCCCTGCTCCCCTGGTTCCTAAAA` has a relative absorbance of 40.2 % of maximum.
`AAAAAATTCCCAGCGTATCCGACCCGAAAA` gave a relative absorbance of 28.3 % of maximum.
With `AAAAAAGTCCCGCGCTAAGCTTTAAAAAAA` the relative absorbance was 38 % of maximum.
With `AAAAAAAGTCTGCGGCTGCAGGGCGGAAAA` the relative absorbance was 99.3 % of maximum.
For `AAAAAAGTACGGATGCCCGCGCGTATAAAA`, the relative absorbance was 58.1 % of maximum.
The relative absorbance of `AAAAAATGCAGACCTTCAGCTGGGTAAAAA` is reported as 27.1 % of maximum.
`AAAAAATCTGTTCTCGTTTCCCCTTCAAAA` has a relative absorbance of 32.1 % of maximum.
With `AAAAAATGCCATTGTACCTGTGTTCGAAAA` the relative absorbance was 23.5 % of maximum.

Study 3
Target: Fragile X messenger ribonucleoprotein 1, C-terminal low-complexity region (Fmr1, Mus musculus, UniProt P35922)
Method: RNA Bind-n-Seq
Form: RNA
Sample: in vitro
Tested at: 200 nM
Setting: whole 134-nt RNA, ends assumed
Together with: 150 mM KCl
Relative to: input library
Reading: higher = stronger binding
`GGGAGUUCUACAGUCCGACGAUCGUCCUGUGCUACACAUCGUAUGUACCGAAUCGGGGUUUGGGGAGGGGAAAAAAAGGGGAAAGUAUUAUGUUACGCCGUUCGGAUCUGCACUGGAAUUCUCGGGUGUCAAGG` gave a log2 enrichment of 0.271.
For `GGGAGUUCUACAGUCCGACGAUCUCCUCAAGUCCUGUGCUACACAUCGUAUGUACCGAAUCGGGAGGAGGGAGGGAAAGUAUUAUGUUACGCCGUUCGGAUCUGCACUUCCAGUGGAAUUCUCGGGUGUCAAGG`, the log2 enrichment was 1.38.
`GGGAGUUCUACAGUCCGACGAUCAGUCCUGUGCUACACAUCGUAUGUACCGAAUCGGGGAAAGGGGUUUUUGGGGAGGGGAAAGUAUUAUGUUACGCCGUUCGGAUCUGCACUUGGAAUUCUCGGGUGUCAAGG` has a log2 enrichment of 0.883.
For `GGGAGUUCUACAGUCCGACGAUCCCUCAAGUCCUGUGCUACACAUCGUAUGUACCGAAUCGGUUUUUGGAGGUGGAAAGUAUUAUGUUACGCCGUUCGGAUCUGCACUUCCAGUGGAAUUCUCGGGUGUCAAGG`, the log2 enrichment was 0.297.
For `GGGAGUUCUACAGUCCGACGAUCCUCCAGAAAGCAGUGGGGCCUGAGAUCACCAAGACAGACCUGGUCCCUGCCUUCCAGAACCUGAUGAAAGACUGUGAGGCCGAGGUGAGGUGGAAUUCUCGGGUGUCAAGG`, the log2 enrichment was -0.178.
`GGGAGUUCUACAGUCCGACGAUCACUGAGGUACUGCCCUCCCCUGCCCCCUACCCUCUCCCUUGUCCCUCUACCCCGUUCCUCCCCUUCCCUCCAUUCCCUUUCCCCAACCUGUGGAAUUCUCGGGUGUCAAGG` gave a log2 enrichment of 0.527.
The log2 enrichment of `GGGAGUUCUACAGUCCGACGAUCUGUGCUACACAUCGUAUGUACCGAAUCGGGGAAAAAAAGGGGAAAAAGGGGAAAAAAAGGGGAAAGUAUUAUGUUACGCCGUUCGGAUCUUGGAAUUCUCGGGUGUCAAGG` is reported as -0.16.
`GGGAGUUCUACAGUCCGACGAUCUAACUUUAGAGGAGGAUCUGAUGGAUAUGGCAGUGGACGUGGAUUUGGGGAUGGCUAUAAUGGGUAUGGAGGAGGACCUUGAGGUGGCAAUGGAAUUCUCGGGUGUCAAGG` gave a log2 enrichment of 0.133.
For `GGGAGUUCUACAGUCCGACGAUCUAACUUUAGAGGAGGAUCUGAUGGAUAUGGCAGUGGACGUGGAUUUGGGGAUGGCUAUAAUGGGUAUGGAGGAGGACGUGGAGGUGGCAAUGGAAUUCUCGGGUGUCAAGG`, the log2 enrichment was 0.596.

Study 4
Target: RING finger protein unkempt homolog, zinc fingers 1-6, SBP tag (UNK, Homo sapiens, UniProt Q9C0B0, residues 30-357)
Sequence of UniProt Q9C0B0 (30-357, looked up): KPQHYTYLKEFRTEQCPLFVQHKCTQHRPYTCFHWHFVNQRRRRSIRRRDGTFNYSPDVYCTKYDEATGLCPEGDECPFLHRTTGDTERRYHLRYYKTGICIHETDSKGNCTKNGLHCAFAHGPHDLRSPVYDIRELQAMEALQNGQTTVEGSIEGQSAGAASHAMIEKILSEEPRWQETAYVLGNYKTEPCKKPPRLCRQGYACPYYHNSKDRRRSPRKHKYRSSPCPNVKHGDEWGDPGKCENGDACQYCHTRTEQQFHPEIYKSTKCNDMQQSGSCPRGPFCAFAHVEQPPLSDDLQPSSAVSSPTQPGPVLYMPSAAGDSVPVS
Method: RNA Bind-n-Seq
Form: RNA
Sample: in vitro
Tested at: 100 nM
Setting: RNA with constant flanks, vertebrate orthologous sites, ends assumed
Relative to: input RNA pool
Reading: higher = stronger binding
For `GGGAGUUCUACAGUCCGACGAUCUUCAGGCACAACUGACUGGUUCACAGCAUUCCUUACCUAGUUACUUUUCAAAUGCAAGUGUAGCUGAUUUUCAGGACACAACCAGGCAGCCAUCUUUAUCUUGUAAUCCAGUUGGAGAUUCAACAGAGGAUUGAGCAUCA`, the bound/input enrichment was 2.32 ratio.
The bound/input enrichment of `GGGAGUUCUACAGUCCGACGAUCUCAUGGCCGCUUCUUACCUACCUCAAUGAGGUAAAGUCUCCCUUGGCAUUAGGUUGGUACUAGAGCCAGCCAUACCUAAGCAGUCUUUUCACAUUUCAUUUCUUUCACACUCGUCAUCUUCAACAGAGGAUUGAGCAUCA` is reported as 0.756 ratio.
The bound/input enrichment of `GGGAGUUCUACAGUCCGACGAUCCUACACCAGAUAUUUUAACUGUUUUAAAGUUACAAACAAGCUUUGCUUUUUGCAUUUAAAUAGAAUACUUUUAUAUUUUAAGUGCUUCAGAUGUGUGGAGAUGUUAGUUUGCUCUUAUAACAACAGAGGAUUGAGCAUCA` is reported as 0.574 ratio.
With `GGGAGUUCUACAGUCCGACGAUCUGUAGUUUUGUUUUUAAUUUCAAGCAAAAUCUUAUUGUACUUGAAUGUGCCCUGUUUUGUUAGCACACCUAGACUUGCUGUAACUGUACUCAUGUCCCAGUAUGUACGUUCUUUCUAUGACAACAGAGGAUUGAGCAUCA` the bound/input enrichment was 0.445 ratio.
The bound/input enrichment of `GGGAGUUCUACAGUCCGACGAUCAUGUAGAGAACAAUUUUCAUUGACCCUUUCCACCGUUGUGAAAUUCUCUAGCAAUUUAUUUAGUAUCUUAAUUUUUCUAAUUCAAGCACAGUGUAUUAGUCAUUUUUAGCCCAUAAAUAACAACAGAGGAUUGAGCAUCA` is reported as 3.4 ratio.
With `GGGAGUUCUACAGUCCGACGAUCUCCUCAACGUGUUCUAGCUUGUGAUCCUUCAAAGAUGGGUUAUGUGUUAAUGAUAGGUACUAGAAAUGUUUACUUCUCUCUUUCCACUGAUCAGAGAAACAGGCAUUAAAGACAGAAUGCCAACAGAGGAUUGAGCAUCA` the bound/input enrichment was 0.457 ratio.
The bound/input enrichment of `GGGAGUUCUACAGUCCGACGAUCUUCAUAAUCACGCUAAUCGUAAUCUGGAGACGUGUAACAUUGUGUAGCCUUUUGUAUAAAUAGACAGAUAGAAAUGGUCCGAUUAGUUUCCUUUUUAAUAUGCUUAAAAUAAGCAGGUGGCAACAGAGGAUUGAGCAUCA` is reported as 1.92 ratio.
For `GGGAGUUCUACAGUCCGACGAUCCUCUCUGAGCGAUAGUAUUCCAUCUGUAGCAGAUUCGCACUCCAGCCAUUUCUCUGAGUUCAGUUGCUCAGAUAUGGAAAGUAUGAAAACUUCCUGUAGCCAUGGUUCCAGCGACUAUCACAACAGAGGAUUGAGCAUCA`, the bound/input enrichment was 0.277 ratio.
